Experimental data collected from several papers.
Numbered parts are unrelated; each lists some results of a single study.

Series 1 — technique: protein-binding microarray; form: double-stranded DNA, one strand shown; sample: in vitro; concentration: not given; direction: higher = stronger binding
Target: Transcriptional repressor CTCF (CTCF, Homo sapiens, UniProt P49711, residues 1-727, full length assumed)
Notes: k-mer, scored over probes, only values ≥0.25
Construct (chain): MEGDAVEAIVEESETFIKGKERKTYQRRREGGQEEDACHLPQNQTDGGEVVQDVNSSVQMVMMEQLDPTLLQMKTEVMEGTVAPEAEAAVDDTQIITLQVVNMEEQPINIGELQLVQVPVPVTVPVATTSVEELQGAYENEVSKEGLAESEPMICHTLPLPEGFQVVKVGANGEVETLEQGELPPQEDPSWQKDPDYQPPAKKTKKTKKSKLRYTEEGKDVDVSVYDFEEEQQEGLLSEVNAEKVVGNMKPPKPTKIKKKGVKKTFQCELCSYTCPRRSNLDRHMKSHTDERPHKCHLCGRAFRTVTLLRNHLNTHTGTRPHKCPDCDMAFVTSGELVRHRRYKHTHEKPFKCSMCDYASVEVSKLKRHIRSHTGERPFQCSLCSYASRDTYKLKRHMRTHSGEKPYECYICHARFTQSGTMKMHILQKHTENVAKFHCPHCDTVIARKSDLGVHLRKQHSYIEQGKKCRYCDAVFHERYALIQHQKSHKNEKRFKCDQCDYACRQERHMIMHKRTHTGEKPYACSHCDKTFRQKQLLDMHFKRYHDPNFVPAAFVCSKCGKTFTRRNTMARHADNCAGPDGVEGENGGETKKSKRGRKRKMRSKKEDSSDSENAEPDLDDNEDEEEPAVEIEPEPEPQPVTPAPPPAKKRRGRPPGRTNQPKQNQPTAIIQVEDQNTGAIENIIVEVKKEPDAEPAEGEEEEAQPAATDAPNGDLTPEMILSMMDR
With `GTAGCGCA` the E-score was 0.313.
With `TAATCGCA` the E-score was 0.292.
`ACAACATA` has an E-score of 0.321.
`ATCTGCGC` gave an E-score of 0.296.
`AAAATGGA` has an E-score of 0.273.
With `ATATTAGA` the E-score was 0.307.
`CGCAAAAA` has an E-score of 0.309.
For `ATTCATTC`, the E-score was 0.315.
`ATTGCGCA` gave an E-score of 0.336.
`ACGTGCGC` has an E-score of 0.297.
With `GGAAAAAC` the E-score was 0.257.
`AGGTGGCG` gave an E-score of 0.416.
For `ACCTAGTG`, the E-score was 0.323.
The E-score of `ACATGCGC` is reported as 0.367.
`ACAATACT` gave an E-score of 0.313.
With `ATAGTAAT` the E-score was 0.326.

Series 2 — technique: competition protein-binding microarray; form: double-stranded DNA, one strand shown; sample: in vitro; concentration: 2 µM; with: Pho4 competitor, 0.05 µM; direction: higher = stronger binding
Target: Centromere-binding protein 1, full length, His-tagged (CBF1, Saccharomyces cerevisiae, UniProt P17106, residues 1-351)
Sequence of UniProt P17106 (whole entry, looked up): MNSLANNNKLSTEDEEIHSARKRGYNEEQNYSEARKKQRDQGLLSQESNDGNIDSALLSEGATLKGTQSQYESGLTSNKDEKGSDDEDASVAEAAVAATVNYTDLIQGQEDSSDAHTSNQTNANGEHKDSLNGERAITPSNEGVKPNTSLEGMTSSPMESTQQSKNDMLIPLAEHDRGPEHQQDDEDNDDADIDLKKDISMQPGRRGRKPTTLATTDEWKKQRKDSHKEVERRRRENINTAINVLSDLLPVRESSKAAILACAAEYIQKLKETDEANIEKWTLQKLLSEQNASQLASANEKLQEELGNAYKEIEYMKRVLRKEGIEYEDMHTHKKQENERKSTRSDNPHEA
Notes: whole 60-bp probe, lowest competitor level
For `TATTGAAGGTACCATCACATGCTTACTCACTTTGCGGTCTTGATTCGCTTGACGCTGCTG`, the fluorescence intensity was 377 a.u.
`AAAGCGGTAATTTGTCACCCAACTTCACATATCTATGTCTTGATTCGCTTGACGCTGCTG` has a fluorescence intensity of 74.3 a.u.
`CCCCGAAATTGAGCGCACATGCTCGCAAGATAATATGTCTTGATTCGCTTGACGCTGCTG` gave a fluorescence intensity of 227 a.u.
The fluorescence intensity of `GTCTTGTCTCATTGTCACTAGACTTTCCCCACTTCAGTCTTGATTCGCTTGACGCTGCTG` is reported as 94.7 a.u.
`GTCTTGTCTCATTGAAGGGTGGGTGTCCCCACTTCAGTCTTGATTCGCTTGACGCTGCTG` has a fluorescence intensity of 83.7 a.u.
The fluorescence intensity of `ACTTCTACTAAGAGTAACGTGGCCGAGAAGAGAAGAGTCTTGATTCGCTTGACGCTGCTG` is reported as 109 a.u.
For `GTTTTGAATTCCCATCACAAAGGTTGACGAGCCGGCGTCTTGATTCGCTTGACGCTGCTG`, the fluorescence intensity was 56.3 a.u.
`GCCTTACATATTTGTCATGCTTTGACTATTGCTATCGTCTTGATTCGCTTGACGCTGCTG` gave a fluorescence intensity of 140 a.u.
For `CAGCGTTATCGCCGTCACGGCGATCTTGAAGTGTAGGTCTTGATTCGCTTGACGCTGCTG`, the fluorescence intensity was 81.6 a.u.
The fluorescence intensity of `ACATACAAATTTCCGCACGTTTTTAAACTTTTCCGGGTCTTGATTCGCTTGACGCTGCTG` is reported as 185 a.u.
`TTCAGACAAATCCAACATGTGGGAGGAGAATAATGGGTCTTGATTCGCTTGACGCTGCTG` gave a fluorescence intensity of 92.3 a.u.
`AGCTGATGCAATTATCCAATAATTTCTTTCACCACCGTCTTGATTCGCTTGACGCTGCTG` has a fluorescence intensity of 102 a.u.
For `CTTTCCCGATCTTGTCACGTAACTTTAGCACATTTGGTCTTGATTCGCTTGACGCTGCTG`, the fluorescence intensity was 131 a.u.

Series 3 — technique: RNA Bind-n-Seq; form: RNA; sample: in vitro; concentration: 200 nM; notes: whole 134-nt RNA, ends assumed; with: 150 mM KCl; relative to: input library; direction: higher = stronger binding
Target: Ras GTPase-activating protein-binding protein 1, full length (G3BP1, Homo sapiens, UniProt Q13283)
Sequence of UniProt Q13283 (whole entry, looked up): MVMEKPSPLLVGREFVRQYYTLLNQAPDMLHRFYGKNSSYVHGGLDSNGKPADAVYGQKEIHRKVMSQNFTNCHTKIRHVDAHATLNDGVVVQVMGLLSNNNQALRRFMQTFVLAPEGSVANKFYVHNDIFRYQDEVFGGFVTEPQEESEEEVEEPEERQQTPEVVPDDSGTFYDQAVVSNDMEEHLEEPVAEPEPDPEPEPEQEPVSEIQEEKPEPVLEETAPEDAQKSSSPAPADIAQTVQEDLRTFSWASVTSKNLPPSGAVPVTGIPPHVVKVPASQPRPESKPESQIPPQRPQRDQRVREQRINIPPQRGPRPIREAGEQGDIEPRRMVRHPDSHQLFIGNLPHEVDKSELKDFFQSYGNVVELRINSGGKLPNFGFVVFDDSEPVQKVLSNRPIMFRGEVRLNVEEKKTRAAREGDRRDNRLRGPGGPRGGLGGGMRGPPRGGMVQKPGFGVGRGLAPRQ
For `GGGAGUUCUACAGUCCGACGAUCCACAGACACCACGCACCCACACAGACACAGAGGGAAGGGGUUGGGAUGGGGACAGGGUGCACAGCAGGGCGGGGUAGGACCCCAGCCCCUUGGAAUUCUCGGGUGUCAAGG`, the log2 enrichment was 1.78.
`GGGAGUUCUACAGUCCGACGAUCUCCUCAAGUCCUGUGCUACACAUCGUAUGUACCGAAUCGGUGGGUGGUGGGAAAGUAUUAUGUUACGCCGUUCGGAUCUGCACUUCCAGCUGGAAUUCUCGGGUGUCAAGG` has a log2 enrichment of -0.0849.
`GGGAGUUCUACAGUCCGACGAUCCAAGUCCUGUGCUACACAUCGUAUGUACCGAAUCGGGGUUUGGGGUGGGGAGGGGAAAGUAUUAUGUUACGCCGUUCGGAUCUGCACUUCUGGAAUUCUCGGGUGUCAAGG` has a log2 enrichment of 1.3.
The log2 enrichment of `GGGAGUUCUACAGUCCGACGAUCCACAGACAACACGCACCCACACAGACACAGAGGGAAGGGGUUGGGAUGGGGACAGGGUGCACAGCUGGGCGGGGUAGGACCCCAGCCCCUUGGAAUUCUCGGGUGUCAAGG` is reported as 1.8.
The log2 enrichment of `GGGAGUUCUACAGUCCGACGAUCUCAAGUCCUGUGCUACACAUCGUAUGUACCGAAUCGGGGUGGGGUGGGGAGGGGAAAGUAUUAUGUUACGCCGUUCGGAUCUGCACUUCCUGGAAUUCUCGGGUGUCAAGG` is reported as 1.65.
`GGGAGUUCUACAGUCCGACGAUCUCAAGUCCUGUGCUACACAUCGUAUGUACCGAAUCGGCCGGGGCCGGGCCGGGGAAAGUAUUAUGUUACGCCGUUCGGAUCUGCACUUCCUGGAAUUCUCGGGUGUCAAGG` gave a log2 enrichment of -0.363.
The log2 enrichment of `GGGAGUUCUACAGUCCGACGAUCCAAGUCCUGUGCUACACAUCGUAUGUACCGAAUCGGGGAAAGGAAAGGAAAGGGGAAAGUAUUAUGUUACGCCGUUCGGAUCUGCACUUCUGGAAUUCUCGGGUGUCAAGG` is reported as -0.356.
The log2 enrichment of `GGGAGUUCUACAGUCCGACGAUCUGAACAGCUCUGCGCUUUUUGUUACUGUGGGGAAAAAAGUUCCUUAGGACAAGGAGACUUAAAACAAUUCAGAAUAACGCCUGGAUUUAUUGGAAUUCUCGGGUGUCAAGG` is reported as -0.918.
`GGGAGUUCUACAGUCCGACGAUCGCAGGAAGUAAAAACAAAUGGAAAUGCUUCGGAUAGUGGCAGGGGUGGGGGUUUCUAAGGAAAGGGUGGGAUGGGAGUGGGUAAAGAGUUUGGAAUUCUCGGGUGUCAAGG` gave a log2 enrichment of 0.834.
`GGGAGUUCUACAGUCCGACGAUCCAAGUCCUGUGCUACACAUCGUAUGUACCGAAUCGGGCCCGGGCCCGGGGCCCGGGAAAGUAUUAUGUUACGCCGUUCGGAUCUGCACUUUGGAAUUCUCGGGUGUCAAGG` has a log2 enrichment of -1.
`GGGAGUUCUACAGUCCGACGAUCUUAGGGAUGUGGCCAUAGAAUUCUCUCAGGAGGAGUGGAAAUGCCUGGACCCUGCUCAGAGGAUCUUAUACAGGGACGUGAUGUUGGAGAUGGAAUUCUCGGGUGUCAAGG` has a log2 enrichment of 0.622.
`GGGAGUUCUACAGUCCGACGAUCGUUUGAUGAUCGUGGACGGAGUGAUUACGAUGGCAUUGGCAGCCGUGGUGACAGAAGUGGCUUUGGCAAAUUUGAACGUGGUGGAAACAGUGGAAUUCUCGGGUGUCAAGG` has a log2 enrichment of 1.19.

Series 4 — technique: protein binding microarray; form: double-stranded DNA, one strand shown; sample: in vitro; concentration: not given; relative to: not given; direction: higher = stronger binding
Target: Histone acetyltransferase KAT6A, both winged helices, GST fusion (KAT6A, Homo sapiens, UniProt Q92794, residues 1-181)
Notes: 8-mer, flanks averaged, mean of 2 arrays, mostly near background
Residues (chain): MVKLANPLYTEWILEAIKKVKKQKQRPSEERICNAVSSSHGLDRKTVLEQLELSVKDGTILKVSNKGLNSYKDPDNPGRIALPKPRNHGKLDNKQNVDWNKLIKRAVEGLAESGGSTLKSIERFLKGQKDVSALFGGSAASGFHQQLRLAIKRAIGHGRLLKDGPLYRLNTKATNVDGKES
`AAATTACA` gave an E-score of 0.00579.
`CATGGCCG` has an E-score of 0.135.
`AGAGGGTA` gave an E-score of -0.337.
`GTGGGTTA` gave an E-score of -0.07.
With `AGAGATCT` the E-score was -0.168.
The E-score of `CCGCCGCA` is reported as 0.318.
`CTGATGTC` has an E-score of -0.0532.
`GCCCTCGC` has an E-score of 0.17.
With `AGGATGCG` the E-score was -0.075.
`TAAGTATA` has an E-score of -0.00628.
`CGTAGACC` has an E-score of 0.0903.
For `TATATACA`, the E-score was -0.102.
`CGTTCGAC` has an E-score of 0.113.
The E-score of `CCGCTGTC` is reported as 0.262.
`AGGACCCA` has an E-score of -0.243.

A few entries again (series 1):
`ACGTGCGC` has an E-score of 0.297.
The E-score of `ACATGCGC` is reported as 0.367.
`ACAATACT` gave an E-score of 0.313.
`ATTGCGCA` gave an E-score of 0.336.
`CGCAAAAA` has an E-score of 0.309.
